Published values pooled from the literature.
Each line is one published result; not all experiments were run side by side. Several values in a cell are separate wells, animals, samples, runs or records.
Cell line: HaCaT

SMILES	test	setting	quantity	result
COc1cc2ncnc(Nc3cccc(Cl)c3)c2cc1OC	–	0.412 µM, 60 h	viability	84.9% and 96% and 100%
CC[C@H](C)[C@H](N)C(=O)N[C@H](C(=O)N[C@@H](C)C(=O)N[C@H](C(=O)N[C@H](C(=O)N[C@@H](CCCNC(=N)N)C(=O)N[C@@H](Cc1ccccc1)C(=O)N[C@@H](CO)C(=O)N[C@@H](CCCNC(=N)N)C(=O)N[C@@H](CCCNC(=N)N)C(=O)N[C@@H](CCCCN)C(=O)N[C@H](C(=O)N1CCC[C@H]1C(=O)N[C@@H](Cc1c[nH]c2ccccc12)C(=O)N[C@@H](CCC(N)=O)C(=O)N[C@@H](CCC(N)=O)C(=O)N[C@@H](CC(N)=O)C(=O)N[C@@H](Cc1ccccc1)C(=O)N[C@H](C(=O)N[C@@H](CC(N)=O)C(=O)N[C@@H](CC(N)=O)C(=O)N[C@@H](Cc1c[nH]cn1)C(=O)N[C@@H](CC(N)=O)C(=O)N1CCC[C@H]1C(=O)N[C@@H](CCCCN)C(=O)NCC(=O)N[C@@H](CCCNC(=N)N)C(=O)N[C@@H](CC(C)C)C(=O)N[C@@H](CCCNC(=N)N)C(=O)N[C@@H](CC(N)=O)C(=O)N[C@@H](CCC(N)=O)C(=O)N[C@@H](Cc1c[nH]cn1)C(=O)N[C@@H](CCCCN)C(=O)N[C@H](C(=O)N[C@@H](CO)C(=O)N[C@@H](CC(C)C)C(=O)N[C@@H](CCC(N)=O)C(=O)N[C@@H](CCCCN)C(=O)N[C@@H](CO)C(=O)N[C@H](C(=O)N[C@@H](C)C(=O)N[C@H](C(=O)N[C@@H](CCSC)C(=O)N[C@@H](CC(C)C)C(=O)N1CCC[C@H]1C(=O)N[C@@H](CCCCN)C(=O)O)C(C)C)[C@@H](C)O)C(C)C)C(C)C)[C@@H](C)CC)[C@@H](C)O)[C@@H](C)CC)[C@@H](C)CC	cell viability, MTT	24 h	CC50	47.4 µM
CC[C@H](C)[C@H](NC(=O)[C@H](CCCCN)NC(=O)[C@H](CO)NC(=O)CNC(=O)[C@H](CC(C)C)NC(=O)[C@@H](N)Cc1c[nH]c2ccccc12)C(=O)N[C@@H](CCCCN)C(=O)N[C@@H](C)C(=O)N[C@@H](C)C(=O)N[C@@H](CCCCN)C(=O)N[C@@H](CCSC)C(=O)N[C@@H](CCCCN)C(=O)N[C@H](C(=O)NCC(=O)N[C@@H](CCSC)C(=O)N[C@@H](Cc1c[nH]c2ccccc12)C(=O)NCC(=O)N[C@@H](C)C(=O)N[C@H](C(=O)NCC(=O)N[C@@H](CC(C)C)C(=O)N[C@@H](CCCNC(=N)N)C(=O)N[C@@H](Cc1c[nH]cn1)C(=O)N[C@@H](CC(N)=O)C(=O)O)C(C)C)C(C)C	cytotoxicity, MTT	24 h, 37 °C	IC50	> 200 µM
O=C(O)/C=C/c1ccc(O)c(O)c1	MTT	24 h, 10% FBS	subcytotoxic concentration	50 µM
CC(C)c1cccc(C(C)C)c1O	–	100 µM, 24 h	viability	93%
CC(C)C[C@H](NC(=O)[C@H](C)NC(=O)[C@H](CCCNC(=N)N)NC(=O)[C@H](CC(C)C)NC(=O)[C@H](CC(C)C)NC(=O)[C@H](CCCNC(=N)N)NC(=O)[C@@H]1CCCN1C(=O)[C@H](CC(C)C)NC(=O)[C@H](CC(=O)O)NC(=O)[C@H](CCCNC(=N)N)NC(=O)[C@H](CC(C)C)NC(=O)[C@H](CC(C)C)NC(=O)[C@H](CCCNC(=N)N)NC(=O)[C@H](Cc1ccc(O)cc1)NC(=O)[C@H](CCCNC(=N)N)NC(=O)[C@@H]1CCCN1C(=O)[C@H](CC(C)C)NC(=O)[C@H](C)NC(=O)[C@H](CCCNC(=N)N)NC(=O)[C@@H](N)CC(C)C)C(=O)N[C@@H](CC(=O)O)C(=O)N[C@@H](C)C(=O)N[C@@H](CCCNC(=N)N)C(=O)N1CCC[C@H]1C(=O)N[C@@H](Cc1ccccc1)C(=O)N[C@@H](C)C(=O)N[C@@H](CCC(=O)O)C(=O)N[C@@H](C)C(=O)N[C@H](C(=O)N[C@@H](CO)C(=O)N[C@@H](Cc1c[nH]c2ccccc12)C(=O)NCC(=O)N[C@@H](CCCNC(=N)N)C(=O)N[C@@H](CC(C)C)C(=O)NCC(=O)N[C@@H](C)C(=O)N[C@@H](CCCNC(=N)N)C(=O)N[C@@H](CCC(N)=O)C(=O)N[C@@H](CCCNC(=N)N)C(=O)N[C@@H](CCCNC(=N)N)C(=O)N[C@@H](CCC(N)=O)C(=O)N[C@@H](CO)C(=O)N[C@@H](CCCNC(=N)N)C(=O)O)[C@@H](C)O	cell viability, MTT	24 h	CC50	112 µM
COC(=O)C=Cc1ccc(OC)c(OC)c1	MTT	24 h, 10% FBS	subcytotoxic concentration	50 µM
CC[C@H](C)[C@H](N)C(=O)N[C@@H](CCCNC(=N)N)C(=O)N[C@@H](CCCNC(=N)N)C(=O)N[C@@H](C)C(=O)N[C@H](C(=O)N[C@@H](CC(N)=O)C(=O)N[C@@H](CCCCN)C(=O)N[C@@H](Cc1ccc(O)cc1)C(=O)N1CCC[C@H]1C(=O)N1CCC[C@H]1C(=O)N[C@H](C(=O)N[C@@H](CC(N)=O)C(=O)N[C@@H](CC(C)C)C(=O)N[C@@H](CCCCN)C(=O)N[C@H](C(=O)N[C@@H](CCCCN)C(=O)N[C@@H](CS)C(=O)N[C@@H](CC(N)=O)C(=O)N[C@@H](CCCNC(=N)N)C(=O)N[C@@H](CC(C)C)C(=O)N[C@@H](CC(N)=O)C(=O)N[C@@H](CO)C(=O)N[C@H](C(=O)N[C@@H](CC(=O)O)C(=O)N1CCC[C@H]1C(=O)N[C@@H](CCCCN)C(=O)N[C@@H](CCC(N)=O)C(=O)N1CCC[C@H]1C(=O)N1CCC[C@H]1C(=O)N[C@@H](CCCNC(=N)N)C(=O)N1CCC[C@H]1C(=O)N[C@@H](Cc1ccccc1)C(=O)N[C@@H](CCCNC(=N)N)C(=O)N[C@@H](CO)C(=O)N[C@@H](Cc1ccccc1)C(=O)N[C@H](C(=O)N1CCC[C@H]1C(=O)NCC(=O)N1CCC[C@H]1C(=O)N[C@@H](CC(C)C)C(=O)N[C@@H](CCCCN)C(=O)N[C@@H](C)C(=O)N[C@H](C(=O)N[C@@H](CC(C)C)C(=O)N[C@@H](CCCCN)C(=O)O)[C@@H](C)O)C(C)C)[C@@H](C)CC)[C@@H](C)CC)[C@@H](C)CC)[C@@H](C)CC	cell viability, MTT	–	CC50	37.1 µM
CC[C@H](C)[C@H](NC(=O)[C@H](CCCCN)NC(=O)[C@H](CCC(N)=O)NC(=O)[C@@H](NC(=O)[C@@H](NC(=O)[C@H](CCCCN)NC(=O)[C@H](CCCNC(=N)N)NC(=O)[C@H](Cc1ccccc1)NC(=O)CN)[C@@H](C)CC)C(C)C)C(=O)N[C@@H](CCCNC(=N)N)C(=O)N[C@@H](CC(=O)O)C(=O)N[C@@H](Cc1ccccc1)C(=O)N[C@@H](CC(C)C)C(=O)N[C@@H](CCCNC(=N)N)C(=O)N[C@@H](CC(N)=O)C(=O)N[C@@H](CC(C)C)C(=O)N[C@H](C(N)=O)C(C)C	cell viability, MTS	1 h, 37 °C, 10% FBS	LC50	60 µM

Repeated from above:
SMILES	test	setting	quantity	result
CC[C@H](C)[C@H](NC(=O)[C@H](CCCCN)NC(=O)[C@H](CO)NC(=O)CNC(=O)[C@H](CC(C)C)NC(=O)[C@@H](N)Cc1c[nH]c2ccccc12)C(=O)N[C@@H](CCCCN)C(=O)N[C@@H](C)C(=O)N[C@@H](C)C(=O)N[C@@H](CCCCN)C(=O)N[C@@H](CCSC)C(=O)N[C@@H](CCCCN)C(=O)N[C@H](C(=O)NCC(=O)N[C@@H](CCSC)C(=O)N[C@@H](Cc1c[nH]c2ccccc12)C(=O)NCC(=O)N[C@@H](C)C(=O)N[C@H](C(=O)NCC(=O)N[C@@H](CC(C)C)C(=O)N[C@@H](CCCNC(=N)N)C(=O)N[C@@H](Cc1c[nH]cn1)C(=O)N[C@@H](CC(N)=O)C(=O)O)C(C)C)C(C)C	cytotoxicity, MTT	24 h, 37 °C	IC50	> 200 µM
